Results of several laboratories.
Every numbered part comes from another study and shows a few of its results, in no order.

Set 1 — method: protein binding microarray; form: double-stranded DNA, one strand shown; medium: in vitro; concentration: not given; reference: not given; reading: higher = stronger binding
Target: Histone acetyltransferase KAT6A, winged helix 1, GST fusion (KAT6A, Homo sapiens, UniProt Q92794, residues 1-85)
Notes: 8-mer, flanks averaged, mean of 2 arrays, mostly near background
Target sequence (chain): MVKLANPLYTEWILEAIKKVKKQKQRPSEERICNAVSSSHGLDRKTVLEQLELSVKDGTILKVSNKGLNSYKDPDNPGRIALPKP
Strand | E-score
GCACTACA | -0.112
AGGCAGTG | -0.0739
CACAATTA | -0.0859
CACTTTTA | -0.109
CAGCCGAC | 0.35
AAATAGCG | 0.0838
AAGCGAAA | -0.113
GTGTTCCA | -0.107

Set 2 — method: RNA Bind-n-Seq; form: RNA; medium: in vitro; concentration: 365 nM; reference: no-protein control; reading: higher = stronger binding
Target: RNA binding protein fox-1 homolog 2, RRM domain, GST-SBP tag (RBFOX2, Homo sapiens, UniProt O43251-10, residues 100-194)
Notes: natural RNA segment, single round, ends assumed
Residues (chain): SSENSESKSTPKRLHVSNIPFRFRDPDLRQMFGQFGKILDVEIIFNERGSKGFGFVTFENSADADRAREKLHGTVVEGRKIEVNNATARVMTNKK
Strand | RBNS enrichment (R)
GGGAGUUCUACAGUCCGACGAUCAGUACAUCAAAGGAAUGGAUGGUGGACCCUACUAUUCAUGUUUUGAGACAUAAAUGUUCACUUUAAAGCAAUUGCAUAAUAGAUAAAAACCUGAACUUUCAUUGGAUUUUUGGAAUUCUCGGGUGCCAA | 0.703
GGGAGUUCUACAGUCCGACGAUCCUAUGGGUGAAACCGGCUCUAGUUCUGUCCCCAGCCCCACCCUCUGGUCUCCUACUCUCUGGCCCUGUGUUUGGGAAAAAUCACUAUUAUGUCUUAAUUCUUUGCCUGUGUGGAAUUCUCGGGUGCCAA | 0.816
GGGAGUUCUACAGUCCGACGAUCAAGUAAACGUGGAGUUGAUUUCUCUACUAAAUAACAGAAACCUCAGUUUUUCACUCCCAUUGUAAGUAACUUUUAUUUAAGUAAGUAAAAUCAGGUAGGAAAUCACCUUUUGGAAUUCUCGGGUGCCAA | 0.437
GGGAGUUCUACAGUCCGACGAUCAGCCACGCCUCCCUGACCUAUCCCGGGACAGGGCCUCUUCCUCGGCCUUCCCAUAUUGGUGGCAGUGGUGCCACACUGAACAGAGUGGAAGACAUAUGCCAUGCAGCUACUGGAAUUCUCGGGUGCCAA | 0.405
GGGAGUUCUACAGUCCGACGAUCCCUCUGUACCUGCUCUUGGAAUGUCUCUGUCUUUGCCCUGCCGCCCACUUCCCGUGCCUAUGAUUUGCUCUAGCAUUUCUGCCACCUGACAAGGAGAGGAGCUUGCUAAAUGGAAUUCUCGGGUGCCAA | 0.68
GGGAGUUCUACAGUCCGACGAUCCAUUAGCUGCUUAAAAAAGCAUUGAGUUAAUUUUUUUAAAUAUCAACUAAAAUAUCAUAGUUCUGUGGUAGACAUUGUUUUAUAAUGAAAUAACUGCAACUAGAGAAAACUGGAAUUCUCGGGUGCCAA | 0.833
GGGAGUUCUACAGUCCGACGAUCCAUUACAAGUGGCCAAAACCCCUGUUCUCAGUGAAGAACCACAUUGGAUUUGUAUUCUGUUCAGUUGUAGUCUACACUGCAGUCUUAUUCCUGGUUCAAACUACCUCUUUUGGAAUUCUCGGGUGCCAA | 0.279
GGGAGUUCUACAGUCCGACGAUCUUUGGAAAUUGUUAUGUAUCACUAAAAGCAUGAAUUGGAACUGCACUGGAAGUCAAAUUCACUUAAAAAAGAAAUUGUGUGGCUUCACCAAGAAGCAGAGUUCAACUUAUUGGAAUUCUCGGGUGCCAA | 11.1

Set 3 — method: protein-binding microarray; form: hairpin DNA; medium: in vitro; concentration: not given; reference: not given; reading: higher = stronger binding; constant ends, left off below: GAGGCCA … TGGCCTCACACTCTT
Target: POU domain, class 6, transcription factor 1, POU and homeodomain (POU6F1, Homo sapiens, UniProt Q14863, residues 311-611)
Notes: whole hairpin DNA, median over replicate spots
Target sequence (chain): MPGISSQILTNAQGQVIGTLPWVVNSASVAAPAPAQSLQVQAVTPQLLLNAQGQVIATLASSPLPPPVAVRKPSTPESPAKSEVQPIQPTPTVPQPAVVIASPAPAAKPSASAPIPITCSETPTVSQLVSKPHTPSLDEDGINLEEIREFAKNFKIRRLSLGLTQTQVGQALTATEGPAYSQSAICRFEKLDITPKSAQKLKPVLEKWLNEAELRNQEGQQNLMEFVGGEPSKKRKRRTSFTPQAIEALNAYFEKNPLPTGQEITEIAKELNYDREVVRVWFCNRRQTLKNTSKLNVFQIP
Strand | median fluorescence
GAATTAGGTGCCTCCTGGCACCTAATTC (5mC at 35) | 436 a.u.
TAATGACGTGCCTCCTGGCACGTCATTA (5mC at 14) | 880 a.u.
TAATTAAGTGCCTCCTGGCACTTAATTA | 1830 a.u.
TAATGAGGTGCCTCCTGGCACCTCATTA | 2750 a.u.
TCGTGAGGTGCCTCCTGGCACCTCACGA (5mC at 33) | 324 a.u.
TAATGAGCGGCCTCCTGGCCGCTCATTA (5mC at 15 27) | 2670 a.u.
TACGGAGGTGCCTCCTGGCACCTCCGTA (5mC at 32) | 346 a.u.
CGATGAGGTGCCTCCTGGCACCTCATCG | 346 a.u.

Single results of other studies
Molecule | target | observed | form | concentration | measurement | result
FHERGYVKL | HLA class I histocompatibility antigen, A alpha chain, allele A*80:01 (Homo sapiens, UniProt P04439) | peptide-MHC binding | peptide | concentration not given | binding | inactive
